Experimental data from different studies.
A part holds a random share of what one study measured.
Chain of UniProt Q96J92 (whole entry, looked up): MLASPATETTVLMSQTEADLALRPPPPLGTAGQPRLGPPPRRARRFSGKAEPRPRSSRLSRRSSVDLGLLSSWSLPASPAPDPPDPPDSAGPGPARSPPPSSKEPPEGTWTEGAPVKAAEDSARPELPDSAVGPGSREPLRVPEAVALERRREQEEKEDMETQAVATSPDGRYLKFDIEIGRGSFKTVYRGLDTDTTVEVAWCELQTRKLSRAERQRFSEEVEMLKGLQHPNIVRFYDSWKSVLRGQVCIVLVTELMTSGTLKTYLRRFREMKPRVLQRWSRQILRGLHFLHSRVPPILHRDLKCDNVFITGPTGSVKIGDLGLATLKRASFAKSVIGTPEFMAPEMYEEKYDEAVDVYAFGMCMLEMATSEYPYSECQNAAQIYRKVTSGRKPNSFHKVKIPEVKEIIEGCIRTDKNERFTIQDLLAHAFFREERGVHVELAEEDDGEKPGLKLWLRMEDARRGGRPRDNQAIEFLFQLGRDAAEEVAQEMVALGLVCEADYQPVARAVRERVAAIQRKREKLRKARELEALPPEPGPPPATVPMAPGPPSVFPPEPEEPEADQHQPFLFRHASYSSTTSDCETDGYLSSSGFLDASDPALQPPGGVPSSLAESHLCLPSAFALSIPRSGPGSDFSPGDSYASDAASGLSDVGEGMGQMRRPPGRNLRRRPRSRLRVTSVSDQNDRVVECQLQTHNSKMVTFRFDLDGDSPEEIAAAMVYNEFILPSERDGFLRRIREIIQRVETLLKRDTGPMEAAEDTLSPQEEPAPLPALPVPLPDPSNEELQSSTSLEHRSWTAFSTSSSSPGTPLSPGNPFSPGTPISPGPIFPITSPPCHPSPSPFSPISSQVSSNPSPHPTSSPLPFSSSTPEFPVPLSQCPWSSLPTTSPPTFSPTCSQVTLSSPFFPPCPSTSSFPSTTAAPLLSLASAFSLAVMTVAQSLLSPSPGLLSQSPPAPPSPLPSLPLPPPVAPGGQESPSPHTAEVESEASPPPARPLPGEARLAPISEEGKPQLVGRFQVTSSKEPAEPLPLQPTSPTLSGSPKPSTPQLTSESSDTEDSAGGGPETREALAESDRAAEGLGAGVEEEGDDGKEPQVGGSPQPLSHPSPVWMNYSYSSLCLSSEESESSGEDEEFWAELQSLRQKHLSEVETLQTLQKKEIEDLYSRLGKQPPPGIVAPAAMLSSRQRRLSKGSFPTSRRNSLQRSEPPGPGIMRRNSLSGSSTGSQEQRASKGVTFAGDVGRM
Chain of UniProt P08912 (whole entry, looked up): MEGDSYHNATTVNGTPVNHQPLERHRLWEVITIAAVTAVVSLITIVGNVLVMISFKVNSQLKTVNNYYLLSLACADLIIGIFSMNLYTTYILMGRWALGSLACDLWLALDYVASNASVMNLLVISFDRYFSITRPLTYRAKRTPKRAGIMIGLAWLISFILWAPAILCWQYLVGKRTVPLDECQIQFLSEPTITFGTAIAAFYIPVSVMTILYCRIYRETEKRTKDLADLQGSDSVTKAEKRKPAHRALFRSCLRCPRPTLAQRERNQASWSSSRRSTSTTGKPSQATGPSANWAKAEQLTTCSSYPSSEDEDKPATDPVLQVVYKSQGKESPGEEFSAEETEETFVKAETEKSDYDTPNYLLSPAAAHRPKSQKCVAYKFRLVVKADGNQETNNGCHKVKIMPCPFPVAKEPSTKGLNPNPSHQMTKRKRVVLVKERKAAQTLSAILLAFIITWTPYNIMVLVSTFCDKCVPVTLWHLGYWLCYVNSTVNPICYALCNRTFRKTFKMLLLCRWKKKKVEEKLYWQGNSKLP

Set 1 — species: mouse; medium: microsomes or S9; tested at: 2 µM; time: 0.5 h
SMILES | remaining compound [%]
CC(C)c1cc(C(N)=O)c(NC(=O)/C(=C/c2ccccc2)c2ccccc2)s1 | 62.7
CCCNC(=O)c1cn(-c2cc(-c3nc(C(C)(C)C)no3)ccn2)cn1 | 56
COc1ccccc1CNC(=O)c1c(OC)cc(=O)n2c1CCCC2 | 16.2
CN(C)c1nc2n(c(=O)n1)CCN2C(=O)Nc1ccccc1 | 20.5
Cc1nc(NC(C)Cc2ccccc2)c2sc3nc4c(cc3c2n1)COC(C)(C)C4 (stereo not drawn) | 50.7
Fc1ccc2onc(-c3cnc4c(c3)COc3ccccc3-4)c2c1 | 11.5
CCOC(=O)c1cc2n(n1)CC(C)(C(=O)NCCCOC)N(c1ccc(C)c(Cl)c1)C2=O (stereo not drawn) | 1.5
Cc1noc2nc3c(c(C(=O)N4CCC5(CCCN(C)C5=O)C4)c12)CCC3 (stereo not drawn) | 46.7
Nc1nc(N(Cc2ccco2)Cc2ccco2)c2[nH]cnc2n1 | 19.4

Set 2 — medium: plasma; route: oral; setting: single dose
Compound: COc1ccc(-c2c(Nc3ccccn3)[nH]c3c(C4=CCCCC4)c(-c4ccccc4)nn3c2=O)cc1
assay | system | setting | plasma concentration, mean
– | cancer patients | 100 mg, 48 h post-dose | 413 ng/mL
– | cancer patients | 400 mg, 6 h post-dose | 1310 ng/mL
– | cancer patients | 400 mg, 48 h post-dose | 265 ng/mL
LC-MS/MS | human | 200 mg twice daily, 0 h | 0 ng/mL
– | cancer patients | 50 mg, 24 h post-dose | 185 ng/mL

Other studies, line by line
FLT3: Receptor-type tyrosine-protein kinase FLT3 (FLT3, Homo sapiens, UniProt P36888)
Compound | target | assay | setting | how to read | quantity | value
Cc1cncc2cccc(S(=O)(=O)N3CCCN(C(=O)CN)C[C@@H]3C)c12 | FLT3 | enzyme activity, inhibitor | 0.5 µM | reference: control | remaining activity | 90.1%
O=C(O)[C@H]1[C@H](Cn2nnc3ccccc3c2=O)CC[C@@H]1C(=O)c1ccc(OCCC2CCOCC2)cc1 | WNK4 (Homo sapiens, UniProt Q96J92) | cell-free assay, competition with immobilised ligand | 1 µM | – | remaining binding | 91%
N#CC(=C(N)Sc1ccc(N)cc1)c1ccccc1C(F)(F)F | FLT3 | enzyme activity, inhibitor | 0.5 µM | reference: control | remaining activity | 107%
Cc1cc2c(-c3ccco3)cnc(N[C@H]3CCN(C)C[C@@H]3C(=O)NC3CCCCC3)c2[nH]c1=O | CHRM5 (Homo sapiens, UniProt P08912) | ligand displacement | 10 µM | – | inhibition | 7.44%

For quick reference, copied from above (set 1):
SMILES | remaining compound [%]
Nc1nc(N(Cc2ccco2)Cc2ccco2)c2[nH]cnc2n1 | 19.4
Cc1nc(NC(C)Cc2ccccc2)c2sc3nc4c(cc3c2n1)COC(C)(C)C4 (stereo not drawn) | 50.7
